Results from different studies.
Lines come from different studies, so protocols differ.

| SMILES | test | system | conditions | how to read | quantity | value |
| --- | --- | --- | --- | --- | --- | --- |
| CCN(CCO)CCCC(C)Nc1ccnc2cc(Cl)ccc12 (stereo not drawn) |  | newly diagnosed glioblastoma patients | oral, 400 mg/dose, grade 1, added: radiotherapy and temozolomide |  | fatigue patients | 57% |
| CC[C@H](C)CCCCC(=O)N[C@@H](CCN)C(=O)N[C@H](C(=O)N[C@@H](CCN)C(=O)N[C@H]1CCNC(=O)[C@H]([C@@H](C)O)NC(=O)[C@H](CCN)NC(=O)[C@H](CCN)NC(=O)[C@H](CC(C)C)NC(=O)[C@@H](Cc2ccccc2)NC(=O)[C@H](CCN)NC1=O)[C@@H](C)O |  | critically ill patients, high initial AUC group, plasma | dose not given, median |  | AUC(0-24 h) at steady state | 133 µg·h/mL |
| C[C@]1(CO)Cc2ncn(-c3ccc(C#N)c(Cl)c3)c2C(=O)O1 |  | healthy Japanese adults, plasma | 40 mg once daily, multiple dose |  | half-life at steady state | 6.2 h |
| COc1ncnn2ccc(-c3cnc4nc(C)n(Cc5nnc([C@@H](C)F)o5)c4c3)c12 |  | human | oral, dose not given, grade 5 |  | patients with vomiting | 0% |
| O=C(Nc1ccccc1)C1CCN(C(=O)Oc2cccnc2)CC1 |  | healthy women | oral, 60 mg, 7 days |  | adverse event Pruritus | 0% |
| Cc1ccc2cc(N3CCC4(O)C(=O)c5cc(C)c(C)cc5N=C34)ccc2n1 (stereo not drawn) |  | rat | intravenous, 30 mg/kg, GLP safety pharmacology | relative to: vehicle | respiratory rate increase | 27.7 breaths/min |
| CCc1ccc(CC/C=C/c2ccc3c(c2)C(=O)CC3)cc1 |  | Sprague-Dawley rat, female, serum | oral, 30 mg/kg/day, 14 days |  | total protein | 53.9 g/L |
| COc1ccc([C@@H](O)c2cc(-c3ncnc4cc(N5CCOCC5)ccc34)c(F)cc2Cl)nn1 |  | patients, advanced solid tumours | oral, 250 mg twice daily, treatment-emergent, added: avelumab | relative to: patients | vascular disorders incidence | 2% |
| COc1cc2c(Oc3ccc4[nH]c(C)cc4c3F)ccnc2cc1OCC1(N)CC1 |  | paediatric recurrent refractory sarcoma | 8 mg/kg |  | grade 1 or 2 Hypothyroidism | 60% |
| CC1=C(O)C(=O)C=C2C1=CC=C1[C@@]2(C)CC[C@@]2(C)[C@@H]3C[C@](C)(C(=O)O)CC[C@]3(C)CC[C@]12C |  | Sprague-Dawley rat male, neocortex | intraperitoneal, 4 mg/kg |  | time to peak brain concentration | 4 h |
| CCCCCCCCCCCCCCCC(=O)N[C@@H](CCC(=O)NCCCC[C@H](NC(=O)[C@H](CC(=O)O)NC(=O)[C@H](CO)NC(=O)[C@@H](NC(=O)[C@H](Cc1ccccc1)NC(=O)[C@@H](NC(=O)CNC(=O)[C@H](CCC(N)=O)NC(=O)[C@H](CO)NC(=O)[C@@H](N)Cc1c[nH]cn1)[C@@H](C)O)[C@@H](C)O)C(=O)N[C@@H](CO)C(=O)N[C@@H](CCC(=O)O)C(=O)N[C@@H](Cc1ccc(O)cc1)C(=O)N[C@@H](CC(C)C)C(=O)N[C@@H](CC(=O)O)C(=O)N[C@@H](CO)C(=O)N[C@@H](CCC(=O)O)C(=O)N[C@@H](CCCNC(=N)N)C(=O)N[C@@H](C)C(=O)N[C@@H](CCCNC(=N)N)C(=O)N[C@@H](CC(=O)O)C(=O)N[C@@H](Cc1ccccc1)C(=O)N[C@H](C(=O)N[C@@H](C)C(=O)N[C@@H](Cc1c[nH]c2ccccc12)C(=O)N[C@@H](CC(C)C)C(=O)N[C@@H](CCC(=O)O)C(=O)N[C@@H](C)C(=O)NCC(=O)NCC(=O)O)C(C)C)C(=O)O | item: Nausea | humans CrCl 30 to 45 mL/min | subcutaneous, 100 µg single dose |  | treatment-related adverse events | 27.3% |
| Cn1c(-c2ccc(C(N)=O)cc2F)nnc1C(C)(C)Oc1c(F)cc(Cl)cc1F |  | human | oral, 10 mg, single ascending dose, incl. administration site |  | general disorder TEAE | 0% |
| CN1CCN(S(=O)(=O)c2cc([N+](=O)[O-])ccc2N(CCOS(C)(=O)=O)CCOS(C)(=O)=O)CC1 |  | naive NOD/SCID mice, pooled blood | intraperitoneal, 25 mg/kg, week 4 |  | alkaline phosphatase | 82 U/L |
| CCCCCCCCCC(=O)N[C@@H](Cc1c[nH]c2ccccc12)C(=O)N[C@H](CC(N)=O)C(=O)N[C@@H](CC(=O)O)C(=O)N[C@@H]1C(=O)NCC(=O)N[C@@H](CCCN)C(=O)N[C@@H](CC(=O)O)C(=O)N[C@H](C)C(=O)N[C@@H](CC(=O)O)C(=O)NCC(=O)N[C@H](CO)C(=O)N[C@@H]([C@H](C)CC(=O)O)C(=O)N[C@@H](CC(=O)c2ccccc2N)C(=O)O[C@@H]1C | population PK model | human | intravenous, dose not given, two-compartment model |  | central volume | 4.79 L |
| CC(C)c1nc(N(C)S(C)(=O)=O)nc(-c2ccc(F)cc2)c1/C=C/[C@@H](O)C[C@@H](O)CC(=O)O |  | healthy human subjects | oral, dose not given, study CL-0537 safety set |  | incidence of Nasopharyngitis | 0% |

Excerpt of the above:
| SMILES | test | system | conditions | how to read | quantity | value |
| --- | --- | --- | --- | --- | --- | --- |
| COc1ccc([C@@H](O)c2cc(-c3ncnc4cc(N5CCOCC5)ccc34)c(F)cc2Cl)nn1 |  | patients, advanced solid tumours | oral, 250 mg twice daily, treatment-emergent, added: avelumab | relative to: patients | vascular disorders incidence | 2% |
| CN1CCN(S(=O)(=O)c2cc([N+](=O)[O-])ccc2N(CCOS(C)(=O)=O)CCOS(C)(=O)=O)CC1 |  | naive NOD/SCID mice, pooled blood | intraperitoneal, 25 mg/kg, week 4 |  | alkaline phosphatase | 82 U/L |
